Experimental data from different studies.
Every numbered part comes from another study and shows a few of its results, in no order. Positions count from the first letter of the parent shown.

Series 1 — technique: DHFR PCA, deep sequencing; matrix: yeast; with: (+)-ABA 0.0091 µM; baseline: wild-type fitted maximum; direction: higher = stronger binding
Target: ABI1, truncated, D143A, DHFR fusion (Arabidopsis thaliana)
Setting: methotrexate growth selection, single substitutions
Starting sequence: PYL1, truncated, DHFR fusion (Arabidopsis thaliana); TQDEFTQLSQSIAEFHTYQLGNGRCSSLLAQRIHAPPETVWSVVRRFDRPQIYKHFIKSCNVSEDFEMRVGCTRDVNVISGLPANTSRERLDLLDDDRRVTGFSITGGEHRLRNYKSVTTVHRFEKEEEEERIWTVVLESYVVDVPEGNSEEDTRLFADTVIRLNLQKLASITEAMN; partner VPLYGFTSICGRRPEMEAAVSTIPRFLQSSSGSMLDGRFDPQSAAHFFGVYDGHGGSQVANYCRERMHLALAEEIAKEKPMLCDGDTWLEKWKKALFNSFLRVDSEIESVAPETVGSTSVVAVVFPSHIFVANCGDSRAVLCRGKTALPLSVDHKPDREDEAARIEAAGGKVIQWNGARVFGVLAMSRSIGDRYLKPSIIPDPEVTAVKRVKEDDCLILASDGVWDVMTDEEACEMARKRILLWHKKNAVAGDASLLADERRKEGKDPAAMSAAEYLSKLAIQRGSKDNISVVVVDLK
| Variant | relative binding score |
| --- | --- |
| N77T | 69.4% |
| D153E | 15.7% |
| I52V | 43.3% |
| N22V | 33.2% |
| V62N | -2.77% |
| D92R | 2.18% |
| E64Q | 28.9% |
| I172V | 53.8% |
| V118T | 31.6% |
| N85S | 56.8% |
| E129Y | 9.31% |
| S63Q | 22.2% |
| D95L | -4.86% |
| W41R | 4.37% |

Series 2 — technique: protein binding microarray; molecule type: double-stranded DNA, one strand shown; matrix: in vitro; tested at: not given; baseline: not given; direction: higher = stronger binding
Target: Histone acetyltransferase KAT6A, both winged helices, GST fusion (KAT6A, Homo sapiens, UniProt Q92794, residues 1-181)
Setting: 8-mer, flanks averaged, mean of 2 arrays, mostly near background
Residues (chain): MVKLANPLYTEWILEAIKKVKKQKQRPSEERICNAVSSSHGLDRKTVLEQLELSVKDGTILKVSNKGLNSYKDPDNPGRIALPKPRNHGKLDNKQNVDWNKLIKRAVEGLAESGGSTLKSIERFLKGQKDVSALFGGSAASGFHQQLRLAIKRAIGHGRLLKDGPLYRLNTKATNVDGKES
| Sequence | E-score |
| --- | --- |
| ACATACAG | -0.0351 |
| ACGATTCC | -0.0328 |
| CTACTGAG | -0.215 |
| CAAGCGTA | 0.0522 |
| GATCGGCA | 0.12 |
| ATGAACTA | -0.124 |
| CTTCTTTA | 0.0302 |
| AGGCTAAT | -0.133 |
| GTTGCTTA | -0.0294 |
| CCATAGGG | -0.0897 |
| CTCAACTA | -0.091 |
| CGCGTTGA | 0.286 |
| ACTATATC | -0.077 |
| GGAAAGTA | -0.0364 |
| GAGCACAA | -0.192 |
| ACGCTCCT | 0.025 |
| GTCCATGA | 0.019 |
| AGCACTCG | -0.0431 |
| CAACAGAG | -0.0431 |
| AGGACGGC | 0.215 |
| ACCTCGGG | 0.0382 |
| AGCGCAAG | 0.194 |
| ACGTCAGG | -0.129 |
| AGGCACCA | -0.105 |
| CTTCTCCC | -0.189 |

Series 3 — technique: aptamer microarray, sandwich; molecule type: DNA with 2'F-ANA; matrix: in vitro; tested at: 200 nM; with: Cy3 exosite-II aptamer, 400 nM; direction: higher = stronger binding; sequence: GGTTGGTGTGGTTGG
Target: Prothrombin, mature alpha-thrombin (F2, Homo sapiens, UniProt P00734)
Setting: whole 15-mer aptamer, many near background
| Modification | mean fluorescence intensity |
| --- | --- |
| 2'F-ANA at 2 9 10 11 13 15 | 93.9 a.u. |
| 2'F-ANA at 1 8 11 15 | 200 a.u. |
| 2'F-ANA at 5 7 10 14 15 | 44.4 a.u. |
| 2'F-ANA at 1 3 5 6 8 9 10 11 12 15 | 50.3 a.u. |
| 2'F-ANA at 1 2 4 5 8 9 10 12 14 15 | 46.4 a.u. |
| 2'F-ANA at 1 3 5 6 7 9 10 12 13 14 15 | 46.3 a.u. |
| 2'F-ANA at 1 3 4 6 7 9 10 11 14 15 | 52.4 a.u. |
| 2'F-ANA at 1 3 4 5 8 11 12 13 14 15 | 58.9 a.u. |
| 2'F-ANA at 2 3 6 9 10 11 13 14 | 223 a.u. |
| 2'F-ANA at 2 3 5 8 9 10 11 12 14 | 50.5 a.u. |
| 2'F-ANA at 1 3 4 5 6 9 10 12 14 | 44.7 a.u. |
| 2'F-ANA at 2 6 7 8 13 14 | 137 a.u. |
| 2'F-ANA at 3 4 5 8 12 14 15 | 69.4 a.u. |
| 2'F-ANA at 2 3 4 7 8 10 12 13 14 | 182 a.u. |
| 2'F-ANA at 1 2 4 5 8 11 13 14 | 73.2 a.u. |
| 2'F-ANA at 2 3 7 9 11 13 15 | 604 a.u. |
| 2'F-ANA at 1 3 4 5 6 7 9 13 14 | 81.6 a.u. |
| 2'F-ANA at 1 2 5 11 14 | 48 a.u. |
| 2'F-ANA at 5 6 7 8 10 11 | 48.1 a.u. |

Series 4 — technique: RNA Bind-n-Seq; molecule type: RNA; matrix: in vitro; tested at: 365 nM; baseline: no-protein control; direction: higher = stronger binding
Target: RNA binding protein fox-1 homolog 2, RRM domain, GST-SBP tag (RBFOX2, Homo sapiens, UniProt O43251-10, residues 100-194)
Setting: natural RNA segment, single round, ends assumed
Construct (chain): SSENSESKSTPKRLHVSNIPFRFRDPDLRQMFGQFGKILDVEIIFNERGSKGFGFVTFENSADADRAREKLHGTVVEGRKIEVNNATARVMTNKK
| Sequence | RBNS enrichment (R) |
| --- | --- |
| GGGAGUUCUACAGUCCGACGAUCUGGGCCUGGCCUAGCUCCUCCGCCCUGGCCUAGCCCAGCAAACCCUGGGCGAGUCACAGAGUUUGCUCUUAAGUAGCAAGAGACCAAACUCACCUUGGGUGUAGGGGUCAUGGAAUUCUCGGGUGCCAA | 0.257 |
| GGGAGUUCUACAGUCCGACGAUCGUGAGAGUGUGAAUGCACAGGUGGGUAUUUAAUCUGUAUUAUUCCCCGUUCUUGGAAUUUUCUUCCCCAUGGGGCUGGGGUACUUUACAUUCAAUAAAUACUGUUUAACCUGGAAUUCUCGGGUGCCAA | 1.19 |
| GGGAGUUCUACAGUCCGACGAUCAUUGUAUUCUACUGACAGGAUGCGGUUUUAAAUUUUAUGCCAUCUGUUAUUUAUUCUUGUUUAUUCAAAUGACUGCAAUAACAAUGUUUCAUUCACUAAUGUUAAGGUUAUGGAAUUCUCGGGUGCCAA | 0.656 |
| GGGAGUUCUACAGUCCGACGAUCACGGGCCGGGCAGUGGUGAGGUCACUGUGAAUGGAGGUUUGUUUCCCAUGAGAUCGGACACUGUCCGCAGUCCGAUAUGCCACCAGUGAGCUAGAGCAAUCCAGGAGACUUGGAAUUCUCGGGUGCCAA | 1.24 |
| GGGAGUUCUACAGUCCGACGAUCAGCAUCGCUGAGCGUUAGACAAAGUGUUACACAGAAUGAUUAAAACUUUCAGACUUCUACCUAUGCUCUUUAGUCCUGUAAAUUGGGUUGUAUUGAUGUCAACUCUGGUGUGGAAUUCUCGGGUGCCAA | 0.742 |
| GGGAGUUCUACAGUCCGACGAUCGCCGCUCUUCUGUCAUCCCGCUCCUGCUGAAACACCUCCCAGGGGCUCCACCUGUUCAGGAGCUGAAGCCCAUGCUUUCCCACCAGCAUGUCACUCCCAGACCACCUCCCUGGAAUUCUCGGGUGCCAA | 0.826 |
| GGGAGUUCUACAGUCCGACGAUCGCUUUGCUAACCAAAGAACAUAUAUUUUACUGUCCAUUUCCUCAGCUCCCCAGUCCGAGUAGCAUUUUCUCUGCCCUCCGACUUCUUUUGACCUCAUCUUCCUUCUGGGUUGGAAUUCUCGGGUGCCAA | 0.565 |
| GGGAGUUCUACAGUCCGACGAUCUAGGUUCAGAACAGUAUUCUCAGUACAAGCUUCGCUUUUCUAAGAAGUACACAUUUGGCCCAAAUUCACCGGGAUAAGUGAGAACAGCCAGAAGCAUAAAAUGUGAUGAAUGGAAUUCUCGGGUGCCAA | 0.795 |
| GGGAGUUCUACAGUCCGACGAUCUUGUAUAUCCCCCAAAUUAAAAUUUACUUCAAAGGUGUUAAAGAUUUCAUGUCCUAUAUUAAAGUACAAAUAGGCUUAAAUUACUGGAUAUUUAAUGUAGUUUCCCAUCCUGGAAUUCUCGGGUGCCAA | 0.594 |
| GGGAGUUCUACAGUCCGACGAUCCUCAAGAUUGCAACAGGGAGCAGAACUUGACACUUACAUUUUUUUAAACCUGAUUUUUGUUUUCAAAUAAGAAUGUAAGCAUUUUACUUAAACUGUACUGUUUGCAAGUAUGGAAUUCUCGGGUGCCAA | 0.526 |
| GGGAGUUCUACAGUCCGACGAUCGUUGAGAAAGAAACACUUUAAGGGCGGAAGGCUGGGUGGCUUCCCCGAGAACUAUGAUCUUCCUAUCUGUCGCCUUGCCCACAGCUUCAGGAUGCUCUAAGUUGGAGUCAUGGAAUUCUCGGGUGCCAA | 1 |
| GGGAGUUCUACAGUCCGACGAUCUUGCAUUUAUAAAUUAUAAAUAUUGUACAUGUGUGUAAUUUUUCAUGUAUUCAUUUGCAGUCUUUGUAUUUAAAAAAACUUUACUGUUAUGUUUGUAUAAUAGAACAUUAUGGAAUUCUCGGGUGCCAA | 0.584 |

Some of these lines once more (series 2):
| Sequence | E-score |
| --- | --- |
| GATCGGCA | 0.12 |
| ATGAACTA | -0.124 |
| CTTCTTTA | 0.0302 |
| AGGCTAAT | -0.133 |
| GTTGCTTA | -0.0294 |
| CCATAGGG | -0.0897 |
| CTCAACTA | -0.091 |
